# Assay results pooled from the literature.
# Each line is one published result; not all experiments were run side by side. “And” joins repeats or separate records; there may be more than shown. ± gives the spread as reported.
# UCHL1: Ubiquitin carboxyl-terminal hydrolase isozyme L1 (UCHL1, Homo sapiens, UniProt P09936)
# Sequence of UniProt P09936 (whole entry, looked up): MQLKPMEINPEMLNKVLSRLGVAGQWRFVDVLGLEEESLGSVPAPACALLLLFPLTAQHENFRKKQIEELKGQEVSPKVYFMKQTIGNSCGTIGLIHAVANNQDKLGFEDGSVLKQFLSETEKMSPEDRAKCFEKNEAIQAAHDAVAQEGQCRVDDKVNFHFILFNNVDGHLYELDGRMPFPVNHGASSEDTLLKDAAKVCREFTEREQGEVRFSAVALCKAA
SMILES,tested on,test,system,setting,scale,measurement,value
N=C(N)c1ccc(OCCCCCOc2ccc(C(=N)N)cc2)cc1,Pseudomonas aeruginosa,checkerboard,ATCC 27853,"unit not given, with: rifampicin",lower = stronger synergy,FICI,≤ 0.5
CC[C@H](C)CCCCC(=O)N[C@@H](CCN)C(=O)N[C@H](C(=O)N[C@@H](CCN)C(=O)N[C@H]1CCNC(=O)[C@H]([C@@H](C)O)NC(=O)[C@H](CCN)NC(=O)[C@H](CCN)NC(=O)[C@H](CC(C)C)NC(=O)[C@@H](CC(C)C)NC(=O)[C@H](CCN)NC1=O)[C@@H](C)O,Pseudomonas aeruginosa,broth microdilution,"ATCC 25922, cation-adjusted Mueller-Hinton broth",,,MIC,0.428 µM
COc1cc(C#CC(=O)c2ccccc2OC)ccc1O,Pseudomonas aeruginosa,static biofilm,PA14,"10 µM, 24 h",relative to: DMSO,biofilm formation,70%
O=c1c2cc(Cl)ccc2[nH]c(=S)n1Cc1cccnc1,Pseudomonas aeruginosa,,,,,MIC90,> 100 µM
C[C@@H](O)[C@H]1C(=O)N2C(C(=O)[O-])=C(SC3Cn4cnc[n+]4C3)[C@H](C)[C@H]12 (some centres unmarked),Pseudomonas aeruginosa,checkerboard,carbapenem-resistant,"concentration not given, with: anionic gold nanoparticle 8 µg/mL",relative to: MIC alone over combination,MIC fold reduction,64 fold
COc1ccccc1C(=O)C#Cc1ccc(F)c(F)c1,Pseudomonas aeruginosa,static biofilm,PA14,"10 µM, 24 h",relative to: DMSO,biofilm formation,78%
CC1(C)OCC(C(=O)NCc2ccccc2)O1 (centres unmarked),Pseudomonas aeruginosa,crystal violet staining,,"500 µg/mL, 24 h",relative to: untreated,residual biofilm,32 ± 14%
N#Cc1c(NC(=O)CCl)sc2c1CCN(Cc1ccccc1)C2,UCHL1,"covalent, intact protein LC-MS",,12.5 µM,,labelling,22.4%
COc1cc(C#CC(=O)CC(C)C)ccc1O,Pseudomonas aeruginosa,"RT-qPCR, measured: phzC1",biofilm cells,"10 µM, 24 h",relative to: untreated,mRNA level,63%
CCN1CCN(C(=O)N[C@@H](C(=O)N[C@@H]2C(=O)N3[C@@H]2SC(C)(C)[C@@H]3C(=O)O)c2ccccc2)C(=O)C1=O,Pseudomonas aeruginosa,,R16-49 PER-producing isolate,,,MIC,> 128 µg/mL
CC(=O)N[C@@H](CS)C(=O)O,Pseudomonas aeruginosa,crystal violet staining,,"500 µg/mL, 24 h",relative to: untreated,residual biofilm,18 ± 6%
COc1cccc(C(=O)C#Cc2ccc(F)c(F)c2)c1,Pseudomonas aeruginosa,"RT-qPCR, measured: phzC1",biofilm cells,"10 µM, 24 h",relative to: untreated,mRNA level,44%
N=C(N)c1ccc(OCc2ccc(Br)cc2COc2ccc(C(=N)N)cc2)cc1,Pseudomonas aeruginosa,,ATCC 27853,"concentration not given, with: rifampicin",,MIC in combination,6.25 µg/mL
COc1cc(C#CC(=O)c2ccccc2Cl)ccc1O,Pseudomonas aeruginosa,static biofilm,PA14,"10 µM, 24 h, static",relative to: DMSO,biofilm formation,76%
CC1=C(C#N)C(=O)N=C(O)C1=Cc1ccc(-c2cc([N+](=O)[O-])ccc2Cl)o1,UCHL1,"covalent, intact protein LC-MS",,12.5 µM,,labelling,34%
C[C@@H](O)[C@H]1C(=O)N2C(C(=O)O)=C(S[C@@H]3CN[C@H](CNS(N)(=O)=O)C3)[C@H](C)[C@H]12,Pseudomonas aeruginosa,checkerboard,carbapenem-resistant,"concentration not given, with: anionic gold nanoparticle 8 µg/mL",relative to: MIC alone over combination,MIC fold reduction,4 fold
COC(=O)[C@H](Cc1ccc(O)cc1)NCc1cc2ccccc2nc1SC,Pseudomonas aeruginosa,,,"4 µg/mL, without pentamidine",relative to: control,growth,96.5%
N=C(N)c1ccc(OCCC(CCOc2ccc(C(=N)N)cc2)c2ccccc2)cc1 (centres unmarked),Pseudomonas aeruginosa,checkerboard,ATCC 27853,"unit not given, with: rifampicin",lower = stronger synergy,FICI,≤ 0.125
COc1cc(C#CC(=O)c2ccc(C)cc2)ccc1O,Pseudomonas aeruginosa,static biofilm,PA14,"10 µM, 24 h, static",relative to: DMSO,biofilm formation,74%
C[C@@H](O)[C@H]1C(=O)N2C(C(=O)O)=C(SCCN=CN)C[C@H]12,Pseudomonas aeruginosa,,"BAA-2797, neutropenic mouse thigh infection",dose not given,,bacterial load in thigh,6.94 log CFU and 6.9 log CFU and 8.02 log CFU and 8.46 log CFU and 7.45 log CFU and 7.9 log CFU

# A few entries again:
SMILES,tested on,test,system,setting,scale,measurement,value
COc1cc(C#CC(=O)c2ccccc2Cl)ccc1O,Pseudomonas aeruginosa,static biofilm,PA14,"10 µM, 24 h, static",relative to: DMSO,biofilm formation,76%
N=C(N)c1ccc(OCCCCCOc2ccc(C(=N)N)cc2)cc1,Pseudomonas aeruginosa,checkerboard,ATCC 27853,"unit not given, with: rifampicin",lower = stronger synergy,FICI,≤ 0.5
